Measurements gathered from unrelated publications.
Each numbered part is a random draw from the data of one study; scales do not carry over between parts.

Series 1
Target: Ras GTPase-activating protein-binding protein 1, RRM domain (G3BP1, Homo sapiens, UniProt Q13283)
Chain of UniProt Q13283 (whole entry, looked up): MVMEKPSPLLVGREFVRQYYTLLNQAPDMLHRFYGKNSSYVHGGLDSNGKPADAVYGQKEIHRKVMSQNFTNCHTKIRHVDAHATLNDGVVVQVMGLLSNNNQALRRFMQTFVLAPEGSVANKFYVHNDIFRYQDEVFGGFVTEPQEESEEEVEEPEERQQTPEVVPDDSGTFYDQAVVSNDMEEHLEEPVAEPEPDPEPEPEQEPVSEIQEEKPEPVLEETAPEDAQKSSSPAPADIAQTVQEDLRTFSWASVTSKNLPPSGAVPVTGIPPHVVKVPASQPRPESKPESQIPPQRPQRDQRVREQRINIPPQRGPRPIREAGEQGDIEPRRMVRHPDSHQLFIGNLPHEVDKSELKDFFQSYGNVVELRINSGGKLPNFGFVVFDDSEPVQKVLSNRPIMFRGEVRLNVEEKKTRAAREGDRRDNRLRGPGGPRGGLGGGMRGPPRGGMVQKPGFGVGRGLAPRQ
Technique: RNA Bind-n-Seq
Form: RNA
Sample: in vitro
Concentration: 1 µM
Notes: whole 134-nt RNA, ends assumed
Together with: 150 mM KCl
Relative to: input library
Reading: higher = stronger binding
Oligonucleotide	log2 enrichment
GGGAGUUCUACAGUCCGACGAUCCCUGUGCUACACAUCGUAUGUACCGAAUCAAACCCCCCCAAACCCCCAAACCCCCCCAAAAAAGUAUUAUGUUACGCCGUUCGGAUCUGCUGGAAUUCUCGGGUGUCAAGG	-0.525
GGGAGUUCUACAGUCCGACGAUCAGUCCUGUGCUACACAUCGUAUGUACCGAAUCGGGUUUGGGUUUGGGUUUUUUUGGGAAAGUAUUAUGUUACGCCGUUCGGAUCUGCACUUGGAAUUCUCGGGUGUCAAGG	0.375
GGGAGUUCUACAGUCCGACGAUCAAGUCCUGUGCUACACAUCGUAUGUACCGAAUCGGGUGGGUUUUUGGGAAAAAGGGAAAGUAUUAUGUUACGCCGUUCGGAUCUGCACUUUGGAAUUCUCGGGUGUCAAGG	0.452
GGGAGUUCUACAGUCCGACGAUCCCUGUGCUACACAUCGUAUGUACCGAAUCGGGAAAAAAAGGAAAAAAAGGGAAAAAAAGGAAAGUAUUAUGUUACGCCGUUCGGAUCUGCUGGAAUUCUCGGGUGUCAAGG	0.0676
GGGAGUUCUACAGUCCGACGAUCCAAGUCCUGUGCUACACAUCGUAUGUACCGAAUCGGGAAAAAGGGAAAGGGAGGGAAAGUAUUAUGUUACGCCGUUCGGAUCUGCACUUCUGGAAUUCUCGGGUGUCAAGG	0.86
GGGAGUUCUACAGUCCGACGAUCUUUCACUUCCAGCCAGCUGUGAAGAAGGUGAGCUUGCCUUCCAUCUUCCCCCCUAUCCGCCGCGUAUCUCCGUCGUCUGCAAGCGCGUGAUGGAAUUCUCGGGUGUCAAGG	-0.0371
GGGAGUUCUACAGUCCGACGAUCGCAGGAAGUAAAAACAAAUGGAAAUGCUUCGGAUAGUGGCAGGGGUGUGGGUUGCUAAGGAAAGGGUGGGAUGGGAGUGGGUAAAGAGUUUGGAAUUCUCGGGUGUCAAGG	0.857
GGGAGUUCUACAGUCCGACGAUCUGGCCCUGGUGGCAUGCGGGGAGGAAGAGGUGGCCUCAUGGAUCGUGGUGGUCCCGGUGGAAUGUUCAGAGGUGGCCGUGGUGGAGACAUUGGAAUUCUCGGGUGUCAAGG	1.9

Series 2
Target: Phosphate system positive regulatory protein PHO4, full length, GST-tagged (PHO4, Saccharomyces cerevisiae, UniProt P07270, residues 1-312)
Technique: competition protein-binding microarray
Form: double-stranded DNA, one strand shown
Sample: in vitro
Concentration: 2 µM
Notes: whole 60-bp probe, lowest competitor level
Together with: Cbf1 competitor, 0.05 µM
Reading: higher = stronger binding
Target sequence (chain): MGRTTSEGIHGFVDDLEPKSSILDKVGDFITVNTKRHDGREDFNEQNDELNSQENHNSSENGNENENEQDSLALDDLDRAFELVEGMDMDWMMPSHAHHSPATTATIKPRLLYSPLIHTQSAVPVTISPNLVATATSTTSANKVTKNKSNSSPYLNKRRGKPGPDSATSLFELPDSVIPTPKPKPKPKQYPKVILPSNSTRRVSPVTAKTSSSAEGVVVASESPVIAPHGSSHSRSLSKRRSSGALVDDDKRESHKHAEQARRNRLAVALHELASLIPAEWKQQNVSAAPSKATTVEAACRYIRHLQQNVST
Oligonucleotide	fluorescence intensity
CGTTGGTCTTTTTGGTGAAACGGAGTACTGGCTTGCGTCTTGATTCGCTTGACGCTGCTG	3130 a.u.
AAATGTATACCACTTCACGTGCCAGCGAGTAGGTTTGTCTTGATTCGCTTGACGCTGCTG	16200 a.u.
CTTTCCCGATCTTGGGGTGTGGGTGTAGCACATTTGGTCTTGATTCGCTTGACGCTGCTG	7490 a.u.
TCTGCATATTTGTAAAACGTGCAAAAAAGTAAAGAAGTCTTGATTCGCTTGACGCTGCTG	13700 a.u.
CTTCTGTAAATTTGCCCTGTGGGTGGACGCGCCCCGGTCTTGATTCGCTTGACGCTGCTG	4580 a.u.
CCATATCAGACTGCCCGCGTGGGTATAATTCTGAGGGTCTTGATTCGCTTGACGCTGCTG	15300 a.u.
CGGGGTTAAGTTTGTCACACCACTTGCTTGCAGCAGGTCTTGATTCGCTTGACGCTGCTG	4350 a.u.
TTTTGAATTCACCATCACGTTATTACCAGAACAATTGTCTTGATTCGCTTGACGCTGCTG	7980 a.u.
GAACCTCACTGAAGCACCGTGAATAACCCCATAAATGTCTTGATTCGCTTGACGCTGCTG	4320 a.u.
GAAACCAGATTTTGAGGCGTGCTTTGCAACTGTGAAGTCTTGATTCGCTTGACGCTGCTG	8310 a.u.
CTTTCCCGATCTTGTGGGGTGGGTGTAGCACATTTGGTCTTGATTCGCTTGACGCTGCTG	5770 a.u.
CGTCCTAGTGATTTTCACGTGTAGTCCATGAGGAAGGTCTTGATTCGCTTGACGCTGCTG	11900 a.u.

Series 3
Target: Interferon regulatory factor 7, full length, phosphomimetic (IRF7, Homo sapiens, UniProt Q92985, residues 1-503, S471D/S472D/S475D/S476D/S477D/S483D/S484D/S487D)
Technique: protein-binding microarray
Form: double-stranded DNA, one strand shown
Sample: in vitro
Concentration: 2200 nM top
Notes: 60-bp whole probe
Together with: salmon DNA 0.4 mg/ml
Relative to: random background probes
Reading: higher = stronger binding
Constant ends, left off below: GCCTAGCAC … GTCTTGATTCGCTTGACGCTGCTG
Target sequence (chain): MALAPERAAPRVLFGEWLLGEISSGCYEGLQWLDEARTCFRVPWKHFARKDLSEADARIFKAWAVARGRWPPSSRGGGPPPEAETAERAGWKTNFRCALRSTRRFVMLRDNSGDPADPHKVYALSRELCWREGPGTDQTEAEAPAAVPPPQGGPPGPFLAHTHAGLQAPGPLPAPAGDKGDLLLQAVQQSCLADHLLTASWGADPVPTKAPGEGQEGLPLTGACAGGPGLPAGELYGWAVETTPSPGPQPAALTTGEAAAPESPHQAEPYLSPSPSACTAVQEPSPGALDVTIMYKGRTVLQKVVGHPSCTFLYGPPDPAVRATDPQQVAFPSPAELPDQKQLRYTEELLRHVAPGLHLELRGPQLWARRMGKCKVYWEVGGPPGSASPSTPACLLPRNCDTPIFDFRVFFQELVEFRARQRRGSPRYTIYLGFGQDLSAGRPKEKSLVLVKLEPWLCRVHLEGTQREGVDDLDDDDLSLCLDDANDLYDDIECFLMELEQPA
Oligonucleotide	fitted relative affinity [z-score]
GACGATTGCGGGTATCGAGACGTGCTA	0.333
TTAGGTATCGTTCTCCTTTAGTGCTAG	1.83
TAGTATATACACTTATGACTGTGCTAG	0.468
GACGGACTGGTCTATCGGGACGTGCTA	-0.911
GACGGTTTCGGACTGGGCACGTGCTAG	3.52
TTCGATCTCAGTCTCGATTAGTGCTAG	0.947
TCAACTCTGAACCTTGGACTGTGCTAG	0.163
TTAGATATCGGGACTGGAGTAGTGCTA	-0.466
TCAAGTTTCACTTTCCAACTGTGCTAG	9.01
TCATGTGTGCATCTATCACTGTGCTAG	0.643
TTAGGTTTCCTTTTACTTTAGTGCTAG	4.54

Series 4
Target: Histone acetyltransferase KAT6A, winged helix 2, GST fusion (KAT6A, Homo sapiens, UniProt Q92794, residues 85-181)
Technique: protein binding microarray
Form: double-stranded DNA, one strand shown
Sample: in vitro
Concentration: not given
Notes: 8-mer, flanks averaged, mean of 2 arrays, mostly near background
Relative to: not given
Reading: higher = stronger binding
Target sequence (chain): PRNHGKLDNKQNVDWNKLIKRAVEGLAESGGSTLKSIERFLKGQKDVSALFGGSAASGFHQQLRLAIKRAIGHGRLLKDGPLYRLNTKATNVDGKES
Oligonucleotide	E-score
GTAGTTAA	0.0137
ACAGGTAA	-0.117
ATGAGTCC	-0.0953
CCAGTGAG	-0.0464
CGAAGTTC	0.078
GGGATGAA	-0.00571
TCTCTGCA	-0.0746
CTGACGAC	0.0174
CAACTCAG	0.106
AAAGTTCA	-0.0312
CGCAGCCC	0.288
ACACTGCG	0.0836
GGCAATGA	-0.018
CGAGATCA	0.175
GTAGACCA	-0.143
CATGGATA	-0.0215
CTTCGTAC	0.0841
AGCCACAA	0.215
ACACTCAG	0.2
GAACCGTA	-0.297
CTGAGGCC	0.137
GTTCTGTA	-0.0823
ACCCTGGC	0.00073
CGAGTTAG	0.00366

Series 5
Target: RNA binding protein fox-1 homolog 2, RRM domain, GST-SBP tag (RBFOX2, Homo sapiens, UniProt O43251-10, residues 100-194)
Technique: RNA Bind-n-Seq
Form: RNA
Sample: in vitro
Concentration: 365 nM
Notes: natural RNA segment, single round, ends assumed
Relative to: no-protein control
Reading: higher = stronger binding
Residues (chain): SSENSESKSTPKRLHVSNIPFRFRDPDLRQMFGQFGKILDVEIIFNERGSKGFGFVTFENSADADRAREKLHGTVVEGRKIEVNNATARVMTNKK
Oligonucleotide	RBNS enrichment (R)
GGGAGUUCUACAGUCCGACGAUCUGUGUUCACAAGGGUUACUCCUCAAAACCCCCAGUUCUCACUCAUGUCCCCAACUCAAGGCUAGAAAACAGCAAGAUGGAGAAAUAAUGUUCUGCUGCGUCCCCACCGUGUGGAAUUCUCGGGUGCCAA	0.343
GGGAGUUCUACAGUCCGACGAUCCGAGGCCUCUGUGGUUGUGCCGCGGGUUUGCUGCUGUGCUGAGUCCUUCUGGGGGAGCCCUAAGAGGUGGGGAGCAGAGGACUUUUGCUCAGACACCCUUUGCCUGGAAGUGGAAUUCUCGGGUGCCAA	0.851
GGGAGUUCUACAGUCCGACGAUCCCCUCAAUAGUUGCCUUUUAGUGCUGUAAUAGUUAAAUCCUACAGCAUAAUCAAUAACUCGCAUAUGAAGUAAAAAGGAAUACUGUGAAAGGGGAGUACUCUUGUACAGCUGGAAUUCUCGGGUGCCAA	0.328
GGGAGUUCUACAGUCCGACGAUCACUUCUAACCUGGCAGAGGCCCUGGCCGGCCCUCCCCCUGCUCUGCUUCUGCGCCUUCUGCGUUUGGACAUAGGACUCUGCAGGGCCGCCCUCUCUAACUGGCCUGGCUCUGGAAUUCUCGGGUGCCAA	0.475
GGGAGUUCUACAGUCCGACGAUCAAGCCUCUUGGUGCACAAUAAACUAUUGCUGAAUCUUUGAACAGCUGGAAAGUAGUCUUGAGAGGCAGAAGCCGAAGGUUCGAGAGCCAGUGUUUAAUGUGCAGGAUCUAUGGAAUUCUCGGGUGCCAA	0.334
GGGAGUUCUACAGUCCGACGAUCGAACAGCACGUGGUGGGGUCCUGCUUGUGUGCUCUGCGUUCCUCUGUGGCGUGGCCAGGCCGGGGCAUGGCUCUUACCCGGGGAGUGGUGGGCAUCUCGAUGCUUCUUUGUGGAAUUCUCGGGUGCCAA	8.35
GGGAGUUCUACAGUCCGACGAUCUUUGAAGAUCUGUCCAUAUUCAGGAAUCUGAGAGUGUUAAAAAAAGGUACCAAUCAUUGAUUUUUCUUUUGUAAACUAAAACGUUUAAAAUAAAAUAGCAUUUACAGUUUUGGAAUUCUCGGGUGCCAA	0.582
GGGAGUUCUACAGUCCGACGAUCGAGUCUGCCUGUUUCUGCUAGCUCCGUGUUUAGUCCACUUGGGUCAUCAGCUCUGCCAAGCUGAGCCUGGCCAAGCUAGGUGGACAGACCCUUGCAGUGAUGUCCGUUUGUGGAAUUCUCGGGUGCCAA	0.808

Series 6
Target: Sal-like protein 4, full length isoform B (SALL4, Homo sapiens, UniProt Q9UJQ4-2, residues 1-616)
Technique: universal PBM
Form: double-stranded DNA, one strand shown
Sample: in vitro
Concentration: not given
Notes: 8-mer, flanks averaged, mean of replicates
Reading: higher = stronger binding
Oligonucleotide	E-score
CAGTTCGC	-0.0179
CATGAATC	0.049
AATTATCT	0.296
GATTAAGA	0.175
AAATGAGC	0.155
AGGTAGCG	-0.106
ATCACATC	-0.0756
ATGGCAAG	0.0362
ACACTGAT	0.0558
ACCACCGA	-0.167
ATGAGCCC	-0.169
AACGTTGG	-0.0107
AGGGTACC	-0.232
CCCGTGAG	-0.278
GTGCACAA	-0.0337
